Assay results pooled from the literature.
Each line is one published result; not all experiments were run side by side. “And” joins repeats or separate records; there may be more than shown.
Target: Mu-type opioid receptor (Oprm1, Rattus norvegicus, UniProt P33535)
Sequence of UniProt P33535 (whole entry, looked up): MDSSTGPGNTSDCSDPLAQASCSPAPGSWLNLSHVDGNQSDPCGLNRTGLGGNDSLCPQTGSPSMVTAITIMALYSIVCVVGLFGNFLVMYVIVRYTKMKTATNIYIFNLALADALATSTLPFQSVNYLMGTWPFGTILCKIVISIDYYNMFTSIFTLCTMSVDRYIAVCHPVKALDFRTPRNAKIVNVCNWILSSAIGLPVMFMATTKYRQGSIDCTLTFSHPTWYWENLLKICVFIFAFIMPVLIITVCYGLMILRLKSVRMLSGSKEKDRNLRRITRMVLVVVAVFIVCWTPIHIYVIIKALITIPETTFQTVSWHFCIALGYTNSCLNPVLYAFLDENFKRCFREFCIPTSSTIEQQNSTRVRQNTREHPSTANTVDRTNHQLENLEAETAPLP

With `CC(=O)N[C@@H](Cc1ccc(O)cc1)C(=O)N[C@@H](C(=O)N[C@H](C(=O)N[C@H](Cc1ccccc1)C(N)=O)C(C)C)C(C)C` the EC50 was > 10000 nM (GIRK current, agonist, whole-cell patch clamp; rat locus coeruleus neurons, brain slices).
With `Cc1cc(O)cc(C)c1C[C@H](N)C(=O)N[C@H](CCCNC(=N)N)C(=O)N[C@@H](Cc1ccccc1)C(=O)N[C@@H](CCCCN)C(=O)N[C@H]1CCCC[C@@H]1NC(=O)[C@H](Cc1ccccc1)NC(=O)[C@H](CC1CCCCC1)NC[C@@H]1Cc2ccccc2CN1C(=O)[C@@H](N)Cc1ccc(O)cc1` the Ki was 80.3 nM (ligand displacement, radioligand; cell membranes).
The Ki of `Cc1cc(O)cc(C)c1C[C@H](N)C(=O)N[C@@H]1CCCCC[C@@H](C(N)=O)NC(=O)[C@H](Cc2ccccc2)NC(=O)[C@H](Cc2ccccc2)NC1=O` is reported as 1.54 nM (ligand displacement, radioligand; cell membranes).
`Cc1cc(O)cc(C)c1C[C@H](N)C(=O)N[C@H](CCCNC(=N)N)C(=O)N[C@@H](Cc1ccccc1)C(=O)N[C@@H](CCCCN)C(=O)NNC(=O)[C@H](Cc1ccccc1)NC(=O)[C@H](CC1CCCCC1)NC[C@@H]1Cc2ccccc2CN1C(=O)[C@@H](N)Cc1ccc(O)cc1` has a Ki of 11.2 nM (ligand displacement, radioligand; cell membranes).
`N=C(N)NCCC[C@@H]1NC(=O)[C@@H](Cc2ccc(O)cc2)NC(=O)[C@@H](CCCCN)NC(=O)[C@@H](Cc2ccccc2)NC1=O` has a Ki of 1 to 2 nM and 2.3 nM (ligand displacement, radioligand; cell membranes).
`NC(=O)[C@@H]1CC/C=C/C[C@@H](NC(=O)[C@@H](N)Cc2ccc(O)cc2)C(=O)N[C@@H](Cc2ccccc2)C(=O)N[C@@H](Cc2ccccc2)C(=O)N1` has a Ki of 0.332 nM (ligand displacement, radioligand; cell membranes).
`Oc1cccc(CCN(CCc2ccccc2)CC2CCCC2)c1` has an IC50 of 1800 nM (β-arrestin recruitment, antagonist).
With `Cc1cc(O)cc(C)c1C[C@H](N)C(=O)N[C@@H]1C/C=C/CC[C@@H](C(N)=O)NC(=O)[C@H](Cc2ccccc2)NC(=O)[C@H](Cc2ccccc2)NC1=O` the Ki was 0.438 nM (ligand displacement, radioligand; cell membranes).
`Cc1cc(O)cc(C)c1C[C@H](N)C(=O)N[C@H](CCCNC(=N)N)C(=O)N[C@@H](Cc1ccccc1)C(=O)N[C@@H](CCCCN)C(=O)NCCCCCCNC(=O)[C@H](Cc1ccccc1)NC(=O)[C@H](CC1CCCCC1)NC[C@@H]1Cc2ccccc2CN1C(=O)[C@@H](N)Cc1ccc(O)cc1` has a Ki of 18.6 nM (ligand displacement, radioligand; cell membranes).

Repeated from above:
`Cc1cc(O)cc(C)c1C[C@H](N)C(=O)N[C@H](CCCNC(=N)N)C(=O)N[C@@H](Cc1ccccc1)C(=O)N[C@@H](CCCCN)C(=O)NCCCCCCNC(=O)[C@H](Cc1ccccc1)NC(=O)[C@H](CC1CCCCC1)NC[C@@H]1Cc2ccccc2CN1C(=O)[C@@H](N)Cc1ccc(O)cc1` has a Ki of 18.6 nM (ligand displacement, radioligand; cell membranes).
